Measured values collected from several papers.
Lines come from different studies, so protocols differ.

SMILES	assay	test system	setting	quantity	result
CC1=CC(C)=[N+]2C1=Cc1ccc(CCC(=O)N3CCN(C(=O)c4cc(Cc5n[nH]c(=O)c6ccccc56)ccc4F)CC3)n1[B-]2(F)F	HPLC	–	–	chromatographic logP	2.9
COC(=O)C1=CNC=C(C(=O)OC)C1c1ccc(F)c(C(F)(F)F)c1	–	–	–	logP	3.45
CCCCCNCC(=O)O	shake flask	water	24 h	logP	-1.27
COc1ccc(-c2csc(N/N=C(\C)c3cc(O)cc(O)c3)n2)cc1	shake flask	water	–	logP	1.11
O=C1Nc2ccccc2C1=NN=Cc1ccc(F)cc1	shake flask	water	–	logP	2.23
COc1ccc(-n2c(=O)c(C(=O)C3C(=O)CCCC3=O)nc3c(C)cccc32)cc1	shake flask	–	–	logP	2.8
CCC(C)NCC(=O)O (stereo not shown)	shake flask	water	24 h	logP	-1.47
O=C(NCCN1CCOCC1)c1cc2c3ccccc3n3c(=O)ccc(n1)c23	absorbance	–	–	logP	1.03
CCCCCCCCNCC(=O)O	shake flask	water	24 h	logP	0.24
COc1ccc(-n2c(=O)c(C(=O)C3C(=O)CCCC3=O)nc3ccccc32)cc1	shake flask	–	–	logP	2.6
